Results pooled from the literature.
Each numbered part is a random draw from the data of one study; scales do not carry over between parts.

Block 1
Target: Fragile X messenger ribonucleoprotein 1, C-terminal low-complexity region (Fmr1, Mus musculus, UniProt P35922)
Technique: RNA Bind-n-Seq
Form: RNA
Sample: in vitro
Tested at: 200 nM
Notes: whole 134-nt RNA, ends assumed
Together with: 150 mM KCl
Relative to: input library
Direction: higher = stronger binding
Shared flanks, not repeated: GGGAGUUCUACAGUCCGACGAUC … UGGAAUUCUCGGGUGUCAAGG
| Strand | log2 enrichment |
| --- | --- |
| GAAAUUAUGGAAGUGGAAAUUACAAUGAUUUUGGAAAUUAUAACCAGCAACCUUCUAACUACGGUCCAAUGAAGAGUGGAAACUUUGGUG | -1.34 |
| CUGUGCUACACAUCGUAUGUACCGAAUCGGGGAAAAAGGGGAAAAAGGGGUUUUUUUGGGGAAAGUAUUAUGUUACGCCGUUCGGAUCUG | 0.139 |
| GUUUGAUGAUCGUGGACGGAGUGAUUACGAUGGCAUUGGCAGCCGUGGUGACAGAAGUGGCUUUGGCAAAUUUGAACGUGGUGGAAACAG | 0.41 |
| CACAGACAACACGCACCCACACAGACACAGAGGGAAGGAGUUGGGAUGGGGACAGGGUGCACAGCAGGGCGGGGUAGGACCCCAGCCCCU | 1.17 |
| AGUCCUGUGCUACACAUCGUAUGUACCGAAUCGGGGUGGGGUUUGGGGAAAAAGGGGAAAGUAUUAUGUUACGCCGUUCGGAUCUGCACU | 0.788 |
| CUCAAGUCCUGUGCUACACAUCGUAUGUACCGAAUCGGGGUUGGUUGGUUGGGAAAGUAUUAUGUUACGCCGUUCGGAUCUGCACUUCCA | 0.233 |

Block 2
Target: Histone acetyltransferase KAT6A, winged helix 2, GST fusion (KAT6A, Homo sapiens, UniProt Q92794, residues 85-181)
Technique: protein binding microarray
Form: double-stranded DNA, one strand shown
Sample: in vitro
Tested at: not given
Notes: 8-mer, flanks averaged, mean of 2 arrays, mostly near background
Relative to: not given
Direction: higher = stronger binding
Construct (chain): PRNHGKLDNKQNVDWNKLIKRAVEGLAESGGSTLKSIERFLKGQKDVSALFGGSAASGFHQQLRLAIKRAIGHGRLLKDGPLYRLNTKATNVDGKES
| Strand | E-score |
| --- | --- |
| GGACACAC | 0.0243 |
| GCTGTGTA | -0.0152 |
| GACCTTTA | -0.00143 |
| CATGCTCA | -0.0867 |
| ACGCAATG | 0.0331 |
| GAAAGCAA | 0.202 |
| AAAGTTAC | 0.0696 |
| ATTTTGGA | 0.0382 |

Block 3
Target: TAR DNA-binding protein 43, full length, His tag (TARDBP, Homo sapiens, UniProt Q13148, residues 1-414)
Technique: RNA Bind-n-Seq
Form: RNA
Sample: in vitro
Tested at: 20 nM
Notes: 6-mer, flanks averaged, single round
Together with: 150 mM LiCl
Relative to: input library
Direction: higher = stronger binding
| Strand | 6-mer enrichment (R) |
| --- | --- |
| CUUGCA | 0.934 |
| CCGGAG | 0.941 |
| CAUUUA | 0.986 |
| GGAUGA | 1.11 |
| CUUGGC | 1 |
| GCCUAU | 0.943 |
| UGGGAA | 1.06 |
| GUACAG | 0.906 |
| AGGAUG | 1.05 |

Other studies, line by line
| Substance | target | test | test system | setting | how to read | quantity | result |
| --- | --- | --- | --- | --- | --- | --- | --- |
| PhoQ, residues 284 288 289 292 302 303 SASVAL | PhoP, residues 12 14 15 18 19 QYFSL (Escherichia coli, UniProt P23836) | Sort-seq, refers to: YFP reporter | E. coli | PhoQ-PhoP variant library, together with: 10 µM Mg2+ | relative to: high Mg2+ state, higher = stronger signaling | fold induction | 15.1 |

Some of these lines once more (block 1):
| Strand | log2 enrichment |
| --- | --- |
| CACAGACAACACGCACCCACACAGACACAGAGGGAAGGAGUUGGGAUGGGGACAGGGUGCACAGCAGGGCGGGGUAGGACCCCAGCCCCU | 1.17 |
| CUCAAGUCCUGUGCUACACAUCGUAUGUACCGAAUCGGGGUUGGUUGGUUGGGAAAGUAUUAUGUUACGCCGUUCGGAUCUGCACUUCCA | 0.233 |
| AGUCCUGUGCUACACAUCGUAUGUACCGAAUCGGGGUGGGGUUUGGGGAAAAAGGGGAAAGUAUUAUGUUACGCCGUUCGGAUCUGCACU | 0.788 |
| GUUUGAUGAUCGUGGACGGAGUGAUUACGAUGGCAUUGGCAGCCGUGGUGACAGAAGUGGCUUUGGCAAAUUUGAACGUGGUGGAAACAG | 0.41 |
